# Experimental data of several laboratories.
# “And” joins repeats or separate records; there may be more than shown.
SMILES,organism,assay,system,conditions,endpoint,value
Cc1cc(Oc2nc(N3CC[C@@H](c4ccncc4)C3)ncc2F)[nH]n1,Mycobacterium tuberculosis,,"THP-1, H37Rv non-replicating","0.03002 µM, day 4",normalised growth,5.66% and -3.77%
Cc1ccc(CNC(=O)Cc2c(C)nc3ccc(C)cn23)cc1,Mycobacteroides abscessus,,ATCC 19977,72 h,MIC,> 50 µM
CN[C@@H]1[C@H](O)[C@H](NC)[C@H]2O[C@]3(O)[C@H](O[C@@H]2[C@H]1O)O[C@H](C)C[C@H]3NC(=O)Cc1cc(Cl)ccn1,Mycobacteroides abscessus,microbial growth,ATCC19977,,MIC,25 to 50 µg/mL
Cc1ccc2nc(C)c(CC(=O)NCc3ccc(N(C)C)cc3)n2c1,Mycobacterium avium,microbial growth,,6 days,MIC,> 50 µM
O=C(NNc1ccccc1)c1nnc(C23CC4CC(CC(C4)C2)C3)o1,Fusarium graminearum,"fungal growth, inhibitor",,,EC50,> 50 µg/mL
CN[C@@H]1[C@H](O)[C@H](NC)[C@H]2O[C@]3(O)[C@H](O[C@@H]2[C@H]1O)O[C@H](C)C[C@H]3NC(=O)CNC(C)(C)C,Proteus vulgaris,"microbial growth, broth dilution",ATCC33420,,MIC,> 200 µg/mL
O=C(NNc1ccc(Cl)cc1)c1nnc(CC23CC4CC(CC(C4)C2)C3)o1,Pyricularia grisea,microbial growth,,,EC50,5.05 µg/mL
CC(C)CC(C(=O)N1CC2(CC1C#N)C(=O)Nc1ccccc12)N(C)C(=O)c1cc2c(F)cc(F)c(F)c2[nH]1 (stereo not drawn),human coronavirus 229E,viral replication,MRC-5,0.01 µM,inhibition,107%
CN[C@@H]1[C@H](O)[C@H](NC)[C@H]2O[C@]3(O)[C@H](O[C@@H]2[C@H]1O)O[C@H](C)C[C@H]3NC(=O)Cc1ccccn1,Streptococcus pyogenes,"microbial growth, broth dilution",ATCC700294,,MIC,50 µg/mL
Cc1ccc2nc(C)c(C(=O)NCc3ccccc3)n2c1,Mycobacterium kansasii,microbial growth,,6 days,MIC,4 µM
CN[C@@H]1[C@H](O)[C@H](NC)[C@H]2O[C@]3(O)[C@H](O[C@@H]2[C@H]1O)O[C@H](C)C[C@H]3NC(=O)Cc1ccc(F)cn1,Mycobacterium avium,microbial growth,ATCC25291,,MIC,25 to 50 µg/mL
CCc1ccn2c(C(=O)NCc3ccc(C)cc3)c(C)nc2c1,Mycobacterium avium,microbial growth,,6 days,MIC,46.3 µM
